Published values from different studies.
Each line is one published result; not all experiments were run side by side.
Chain of UniProt P46093 (whole entry, looked up): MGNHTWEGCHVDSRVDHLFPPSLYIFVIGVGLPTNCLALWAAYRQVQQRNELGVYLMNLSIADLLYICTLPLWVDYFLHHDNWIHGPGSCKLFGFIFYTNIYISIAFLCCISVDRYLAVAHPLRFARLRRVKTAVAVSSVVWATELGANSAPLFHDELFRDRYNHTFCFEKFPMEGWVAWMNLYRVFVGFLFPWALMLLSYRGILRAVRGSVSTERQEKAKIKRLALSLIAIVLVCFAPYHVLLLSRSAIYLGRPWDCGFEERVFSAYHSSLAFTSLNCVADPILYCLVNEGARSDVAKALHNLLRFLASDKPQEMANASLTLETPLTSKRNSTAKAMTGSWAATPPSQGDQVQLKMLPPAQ
Chain of UniProt Q16659 (whole entry, looked up): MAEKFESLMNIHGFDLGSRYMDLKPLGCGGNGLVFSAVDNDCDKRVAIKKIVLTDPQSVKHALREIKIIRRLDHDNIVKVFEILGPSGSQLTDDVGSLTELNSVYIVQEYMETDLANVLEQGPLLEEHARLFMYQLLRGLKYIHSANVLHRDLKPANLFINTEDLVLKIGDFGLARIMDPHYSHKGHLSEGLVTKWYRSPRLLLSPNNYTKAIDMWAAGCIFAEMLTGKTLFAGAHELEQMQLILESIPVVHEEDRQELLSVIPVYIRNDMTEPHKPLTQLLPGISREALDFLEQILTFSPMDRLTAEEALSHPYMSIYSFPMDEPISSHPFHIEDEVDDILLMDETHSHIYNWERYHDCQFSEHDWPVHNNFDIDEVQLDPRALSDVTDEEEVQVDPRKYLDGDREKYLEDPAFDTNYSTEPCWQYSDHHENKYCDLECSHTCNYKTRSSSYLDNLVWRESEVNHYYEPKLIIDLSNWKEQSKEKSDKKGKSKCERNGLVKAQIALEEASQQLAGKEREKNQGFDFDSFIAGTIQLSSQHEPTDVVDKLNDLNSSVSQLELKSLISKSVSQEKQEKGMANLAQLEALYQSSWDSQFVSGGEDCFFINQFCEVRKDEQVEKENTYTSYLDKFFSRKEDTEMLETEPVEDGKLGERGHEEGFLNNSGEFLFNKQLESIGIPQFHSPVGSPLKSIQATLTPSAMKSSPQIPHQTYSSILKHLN
Chain of UniProt Q8WU58 (whole entry, looked up): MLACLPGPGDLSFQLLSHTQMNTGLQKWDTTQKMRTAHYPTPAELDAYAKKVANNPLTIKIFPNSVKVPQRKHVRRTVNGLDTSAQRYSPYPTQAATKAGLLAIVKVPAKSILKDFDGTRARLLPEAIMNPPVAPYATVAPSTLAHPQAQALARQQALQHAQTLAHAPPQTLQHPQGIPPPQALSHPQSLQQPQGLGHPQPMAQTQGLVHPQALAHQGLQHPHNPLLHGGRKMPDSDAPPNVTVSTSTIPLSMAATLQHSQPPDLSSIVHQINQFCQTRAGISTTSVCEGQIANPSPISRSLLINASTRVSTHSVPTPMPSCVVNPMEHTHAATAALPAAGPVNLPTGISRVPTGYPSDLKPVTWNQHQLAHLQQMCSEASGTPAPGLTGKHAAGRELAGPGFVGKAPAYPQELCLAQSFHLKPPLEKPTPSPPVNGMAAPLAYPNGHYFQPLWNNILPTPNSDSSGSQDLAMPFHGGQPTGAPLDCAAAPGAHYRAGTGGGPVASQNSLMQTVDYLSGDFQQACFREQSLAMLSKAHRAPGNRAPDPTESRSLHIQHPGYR
Chain of UniProt P41231 (whole entry, looked up): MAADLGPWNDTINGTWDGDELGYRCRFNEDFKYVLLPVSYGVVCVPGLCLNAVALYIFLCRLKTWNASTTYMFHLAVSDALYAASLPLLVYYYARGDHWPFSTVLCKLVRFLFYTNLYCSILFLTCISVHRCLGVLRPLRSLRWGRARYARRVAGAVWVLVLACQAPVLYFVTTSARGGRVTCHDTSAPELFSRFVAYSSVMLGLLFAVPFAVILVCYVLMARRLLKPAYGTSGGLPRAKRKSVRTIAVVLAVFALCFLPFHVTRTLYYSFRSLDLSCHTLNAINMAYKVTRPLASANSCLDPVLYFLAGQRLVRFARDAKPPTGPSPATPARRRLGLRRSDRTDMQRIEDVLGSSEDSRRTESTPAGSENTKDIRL
Chain of UniProt Q8NCG7 (whole entry, looked up): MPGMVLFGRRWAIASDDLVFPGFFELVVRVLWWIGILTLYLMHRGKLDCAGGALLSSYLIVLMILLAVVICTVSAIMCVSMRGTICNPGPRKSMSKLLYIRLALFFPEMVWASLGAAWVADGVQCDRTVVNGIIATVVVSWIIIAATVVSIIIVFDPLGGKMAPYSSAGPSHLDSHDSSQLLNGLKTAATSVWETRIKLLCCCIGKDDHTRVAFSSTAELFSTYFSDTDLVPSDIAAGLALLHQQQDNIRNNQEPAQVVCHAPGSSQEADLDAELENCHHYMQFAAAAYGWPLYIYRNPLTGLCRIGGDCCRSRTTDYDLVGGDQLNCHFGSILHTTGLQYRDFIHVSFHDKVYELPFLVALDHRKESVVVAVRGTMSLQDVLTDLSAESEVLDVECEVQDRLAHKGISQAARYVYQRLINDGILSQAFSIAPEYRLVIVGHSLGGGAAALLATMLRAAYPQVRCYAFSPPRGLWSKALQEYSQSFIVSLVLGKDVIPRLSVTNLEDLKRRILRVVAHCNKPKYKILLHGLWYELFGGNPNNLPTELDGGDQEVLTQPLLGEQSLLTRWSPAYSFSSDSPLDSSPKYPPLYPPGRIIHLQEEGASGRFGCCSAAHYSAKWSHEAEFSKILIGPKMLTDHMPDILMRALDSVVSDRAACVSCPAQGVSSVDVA
Chain of UniProt O15146 (whole entry, looked up): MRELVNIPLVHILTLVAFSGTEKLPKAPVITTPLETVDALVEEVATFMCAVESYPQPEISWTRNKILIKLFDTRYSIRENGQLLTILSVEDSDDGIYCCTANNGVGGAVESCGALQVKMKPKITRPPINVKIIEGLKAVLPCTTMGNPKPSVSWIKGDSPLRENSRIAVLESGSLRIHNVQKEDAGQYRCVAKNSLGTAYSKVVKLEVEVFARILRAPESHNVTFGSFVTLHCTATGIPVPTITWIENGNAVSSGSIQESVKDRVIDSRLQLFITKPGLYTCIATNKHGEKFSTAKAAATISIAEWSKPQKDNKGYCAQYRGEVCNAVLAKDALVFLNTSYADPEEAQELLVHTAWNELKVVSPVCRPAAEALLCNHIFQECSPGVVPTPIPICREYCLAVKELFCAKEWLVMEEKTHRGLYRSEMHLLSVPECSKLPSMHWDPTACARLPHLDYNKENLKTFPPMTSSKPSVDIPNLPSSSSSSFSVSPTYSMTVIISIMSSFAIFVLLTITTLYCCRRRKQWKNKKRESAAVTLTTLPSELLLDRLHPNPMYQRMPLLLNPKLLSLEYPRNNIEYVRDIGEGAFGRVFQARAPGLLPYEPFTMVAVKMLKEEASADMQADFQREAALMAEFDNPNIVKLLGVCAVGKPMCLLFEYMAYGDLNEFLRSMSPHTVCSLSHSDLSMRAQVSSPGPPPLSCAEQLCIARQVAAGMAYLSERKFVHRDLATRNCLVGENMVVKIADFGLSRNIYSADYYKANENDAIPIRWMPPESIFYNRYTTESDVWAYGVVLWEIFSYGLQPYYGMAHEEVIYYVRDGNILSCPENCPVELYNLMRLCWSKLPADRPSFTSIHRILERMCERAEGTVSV
Chain of UniProt O14733 (whole entry, looked up): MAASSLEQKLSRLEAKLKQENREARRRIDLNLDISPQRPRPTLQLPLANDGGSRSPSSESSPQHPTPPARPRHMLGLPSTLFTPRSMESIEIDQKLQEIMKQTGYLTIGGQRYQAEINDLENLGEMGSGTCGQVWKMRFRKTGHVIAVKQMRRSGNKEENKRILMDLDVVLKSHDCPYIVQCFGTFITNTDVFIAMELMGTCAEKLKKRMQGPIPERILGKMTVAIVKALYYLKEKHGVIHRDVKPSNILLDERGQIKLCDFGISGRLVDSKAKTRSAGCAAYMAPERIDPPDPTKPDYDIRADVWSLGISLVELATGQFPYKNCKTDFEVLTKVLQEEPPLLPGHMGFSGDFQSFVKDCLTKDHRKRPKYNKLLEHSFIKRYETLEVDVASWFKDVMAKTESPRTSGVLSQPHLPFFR
Chain of UniProt P97612 (whole entry, looked up): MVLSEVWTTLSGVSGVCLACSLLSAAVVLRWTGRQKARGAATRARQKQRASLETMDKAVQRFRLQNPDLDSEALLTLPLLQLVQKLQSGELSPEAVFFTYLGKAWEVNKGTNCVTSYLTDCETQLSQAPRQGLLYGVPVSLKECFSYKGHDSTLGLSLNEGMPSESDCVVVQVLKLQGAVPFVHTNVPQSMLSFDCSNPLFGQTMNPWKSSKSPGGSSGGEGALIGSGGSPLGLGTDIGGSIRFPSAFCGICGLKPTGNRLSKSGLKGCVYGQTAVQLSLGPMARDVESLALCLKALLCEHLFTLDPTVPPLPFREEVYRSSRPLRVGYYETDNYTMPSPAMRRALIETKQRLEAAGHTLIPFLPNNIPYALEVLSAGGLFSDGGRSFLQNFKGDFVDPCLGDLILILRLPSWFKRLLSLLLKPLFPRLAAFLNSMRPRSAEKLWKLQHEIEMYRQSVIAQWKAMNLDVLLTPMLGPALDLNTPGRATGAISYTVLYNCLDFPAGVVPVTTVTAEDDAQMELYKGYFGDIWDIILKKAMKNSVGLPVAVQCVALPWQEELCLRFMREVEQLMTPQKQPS

Structure (SMILES) | target or system | assay | test system | conditions | how to read | measurement | value
CN1CCN(c2cc(-c3ccncc3)c(-c3ccc4ccccc4c3)nn2)CC1 | P2Y purinoceptor 2 (P2RY2, Homo sapiens, UniProt P41231) | antagonist, FLIPR |  | 10 µM |  | inhibition | 3.1%
O=C(c1ccc(Cl)cc1)N1CCN2C(=O)N(OC(=O)N3CCOc4ccccc43)C(=O)C2C1 (stereo not drawn) | Diacylglycerol lipase-beta (Homo sapiens, UniProt Q8NCG7) | enzyme activity, inhibitor, MS-based ABPP | SW-620 in situ | 10 µM, 2 h, 37 °C | reference: compound over DMSO, lower = stronger inhibition | median ratio | 1.1
C[C@H]1CN(c2n[nH]c3nc(N[C@H]4CC[C@H](NS(=O)(=O)CCC(F)(F)F)CC4)ncc23)CCO1 | Protein FAM222B (Homo sapiens, UniProt Q8WU58) | competitor, Kinobeads competition | HEK293, K562, placenta extract | 0.8 µM | reference: vehicle | remaining binding | 45%
O=C(Nc1cnccc1Cl)N1CCN(Cc2ccc3c(c2)OC(F)(F)O3)CC1 | Fatty-acid amide hydrolase 1 (Faah, Rattus norvegicus, UniProt P97612) | probe labelling, inhibitor, competitive ABPP with azido-FP probe | rat brain membrane fraction | 10 µM |  | inhibition | 99.2%
[2H]c1c([2H])c([C@]2([2H])CCCN2C(=O)C(C)(C)Oc2ccc3cn[nH]c3c2)c([2H])c([2H])c1C([2H])([2H])[2H] | Mitogen-activated protein kinase 6 (MAPK6, Homo sapiens, UniProt Q16659) | KINOMEscan |  | 1 µM | reference: DMSO control | remaining binding | 83%
COc1ccc(N2C(=O)N(c3c(C)cccc3Cl)Cc3cnc(Nc4ccc(C5CCN(C)CC5)cc4OC)nc32)nc1 | Muscle, skeletal receptor tyrosine-protein kinase (MUSK, Homo sapiens, UniProt O15146) | kinase activity |  | 0.5 µM |  | inhibition | 5%
O=C(Nc1cccnn1)N1CCC(=Cc2cccc(Oc3ccc(C(F)(F)F)cn3)c2)CC1 | Sigma non-opioid intracellular receptor 1 (SIGMAR1, Homo sapiens, UniProt Q99720) | radioligand binding, inhibitor |  | 10 µM, human, together with: [3H]haloperidol |  | inhibition | 24%
CC[C@H](C)[C@@H]1NC(=O)[C@@H]2CCCN2C(=O)[C@H](CC(C)C)NC(=O)[C@H](CC(C)C)NC(=O)CNC(=O)[C@@H](NC(=O)[C@@H](NC(=O)[C@H](CC(=O)O)NC(=O)CNC(=O)[C@@H](NC(=O)[C@H](C)NC(=O)CNC(=O)[C@H](CCCCN)NC(=O)[C@H](CC(C)C)NC(=O)[C@H](CC(C)C)NC(=O)[C@H](CCCCN)NC(=O)CNC(=O)[C@@H](NC(=O)[C@@H](N)CC(C)C)C(C)C)C(C)C)C(C)C)CSSC[C@@H](C(=O)O)NC1=O |  | RNA-seq, measured: Lsp1 | mouse, traumatic brain injury model, frontal cortex and hippocampus | dose not given | reference: TBI alone | log2 fold change | -2.14
COc1cc(Nc2ncc(F)c(Nc3ccc4c(n3)NC(=O)C(C)(C)O4)n2)cc(OC)c1OC | Dual specificity mitogen-activated protein kinase kinase 7 (MAP2K7, Homo sapiens, UniProt O14733) | binding, KINOMEscan |  | 10 µM, MKK7 kinase |  | inhibition | 8%
Oc1ccc2c3c1O[C@H]1[C@@H](O)CC[C@@]4(O)[C@@H](C2)N(CC2CCC2)CC[C@]314 | G-prodeshotein coupled receptor 4 (GPR4, Homo sapiens, UniProt P46093) | β-arrestin recruitment, TANGO luminescence |  | concentration not given | reference: basal luminescence | log2 fold change | 0.088
CC[C@H](C)[C@H](NC(=O)[C@H](Cc1ccccc1)NC(=O)[C@H](CCC(=O)O)NC(=O)[C@H](CCCNC(=N)N)NC(=O)[C@H](C)NC(=O)[C@H](C)NC(=O)[C@H](CCC(N)=O)NC(=O)[C@H](CCC(=O)O)NC(=O)[C@H](CCC(=O)O)NC(=O)[C@H](CC(C)C)NC(=O)[C@H](Cc1ccc(O)cc1)NC(=O)[C@H](CO)NC(=O)[C@H](CO)NC(=O)[C@@H](NC(=O)[C@H](CC(=O)O)NC(=O)[C@H](CO)NC(=O)[C@@H](NC(=O)[C@H](Cc1ccccc1)NC(=O)[C@@H](NC(=O)CNC(=O)[C@H](CCC(=O)O)NC(=O)[C@H](C)NC(=O)CCc1c[nH]cn1)[C@@H](C)O)[C@@H](C)O)C(C)C)C(=O)N[C@@H](C)C(=O)N[C@@H](Cc1c[nH]c2ccccc12)C(=O)N[C@@H](CC(C)C)C(=O)N[C@H](C(=O)N[C@@H](CCCNC(=N)N)C(=O)NCC(=O)N[C@@H](CCCNC(=N)N)C(=O)N[C@@H](CCCCNC(=O)COCCOCCNC(=O)COCCOCCNC(=O)CC[C@H](NC(=O)CCCCCCCCCCCCCCCCC(=O)O)C(=O)O)C(=O)NCC(=O)NCC(=O)N[C@@H](CO)C(=O)N[C@@H](CCCCNc1c(NCCCCCN(O)C(=O)CCC(=O)NCCCCCN(O)C(=O)CCC(=O)NCCCCCN(O)C(C)=O)c(=O)c1=O)C(=O)O)C(C)C [zirconium-89 labelled] |  | gamma counting | rat, stomach-duodenum content | intravenous, 3 nmol/kg, 168 h |  | tissue uptake | 0.04 %ID/g
COc1cc2c(Oc3ccc4[nH]c(C)cc4c3F)ccnc2cc1OCC1(N)CC1 |  |  | paediatric recurrent refractory sarcoma | concentration not given, whole group |  | grade 1 or 2 Thrombocytopenia | 23.5%
